Measured values gathered from unrelated publications.
Every numbered part comes from another study and shows a few of its results, in no order. Positions count from the first letter of the parent shown.

Set 1
Target: ABI1, truncated, D143A, DHFR fusion (Arabidopsis thaliana)
Technique: DHFR PCA, deep sequencing
Medium: yeast
Setting: methotrexate growth selection, single substitutions
Together with: (+)-ABA 4.8 µM
Baseline: wild-type fitted maximum
Direction: higher = stronger binding
Starting sequence: PYL1, truncated, DHFR fusion (Arabidopsis thaliana); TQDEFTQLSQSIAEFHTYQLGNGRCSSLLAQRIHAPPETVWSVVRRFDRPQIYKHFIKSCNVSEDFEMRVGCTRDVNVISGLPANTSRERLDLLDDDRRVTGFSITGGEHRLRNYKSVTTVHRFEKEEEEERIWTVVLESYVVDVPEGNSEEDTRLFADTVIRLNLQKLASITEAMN
`L94H` — result for “relative binding score”: 50.4%.
`H34E`: “relative binding score” 71.4%.
`A158H`: “relative binding score” 5.26%.
`V136C` — result for “relative binding score”: 42.2%.
For `S27Y`, “relative binding score” read 13.1%.
`L138H` — result for “relative binding score”: -35.4%.
For `E125S`, “relative binding score” read 78.9%.
`E64S` — result for “relative binding score”: 73.5%.
`T6N`: “relative binding score” 72.7%.
`T101A` — result for “relative binding score”: 37.8%.
`H34F`: “relative binding score” 63.3%.
For `D92P`, “relative binding score” read -10.9%.
For `V145A`, “relative binding score” read 7.78%.
For `E147M`, “relative binding score” read 57.9%.
`S26Y`: “relative binding score” 46.7%.
`D159N`: “relative binding score” 78.4%.
Under “relative binding score”, `L112Q` is recorded as 1.66%.

Set 2
Target: CCNA1, cyclin fold, Cln2 fusion (human)
Technique: yeast growth competition, sequencing
Medium: yeast
Setting: weak parent motif
Baseline: not given
Direction: higher = stronger binding
Starting sequence: USP37 docking peptide (human); PSAKRSLGFLPQP
`PSAKASLGFLPQP [R5A]` — result for “normalised enrichment score”: 0.158.
Under “normalised enrichment score”, `PSAKRSAGFLPQP [L7A]` is recorded as 0.00934.
For `PSAKRSLGFLPQA [P13A]`, “normalised enrichment score” read 0.165.
`PSAKRSLGALPQP [F9A]` — result for “normalised enrichment score”: -0.186.
For `PSAKRALGFLPQP [S6A]`, “normalised enrichment score” read 0.46.
`PSAKRSLGFAPQP [L10A]`: “normalised enrichment score” 0.115.

Set 3
Target: Centromere-binding protein 1, full length, His-tagged (CBF1, Saccharomyces cerevisiae, UniProt P17106, residues 1-351)
Chain of UniProt P17106 (whole entry, looked up): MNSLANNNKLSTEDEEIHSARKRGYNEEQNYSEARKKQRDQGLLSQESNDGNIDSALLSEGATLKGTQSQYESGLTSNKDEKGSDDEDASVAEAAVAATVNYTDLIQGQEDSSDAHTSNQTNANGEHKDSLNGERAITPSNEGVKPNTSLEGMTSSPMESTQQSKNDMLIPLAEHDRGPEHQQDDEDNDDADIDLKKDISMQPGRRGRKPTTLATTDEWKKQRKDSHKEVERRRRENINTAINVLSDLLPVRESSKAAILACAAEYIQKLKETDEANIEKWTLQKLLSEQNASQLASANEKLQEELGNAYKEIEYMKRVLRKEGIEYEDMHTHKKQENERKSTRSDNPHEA
Technique: competition protein-binding microarray
Form: double-stranded DNA, one strand shown
Medium: in vitro
Concentration: 2 µM
Setting: whole 60-bp probe, lowest competitor level
Together with: Pho4 competitor, 0.05 µM
Direction: higher = stronger binding
For `ACCCGGCATAGAAAGATCGTGATTGTAACGCCCTTGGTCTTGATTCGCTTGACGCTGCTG`, the fluorescence intensity was 67.5 a.u.
`TACCAGAATTGTGAGAACATGACAAAACCAACTACGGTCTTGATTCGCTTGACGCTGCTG` gave a fluorescence intensity of 104 a.u.
`CTCTTAGTTTGGCATCTCATGACGCGGCACACATTCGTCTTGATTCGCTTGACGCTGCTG` has a fluorescence intensity of 77.3 a.u.
`GTCTTGTCTCATTTTCACGTGAGGTTCCCCACTTCAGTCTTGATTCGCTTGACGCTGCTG` has a fluorescence intensity of 701 a.u.
`AGTGTAAGATGTGCTTTCGTGACTCGAGCGAAGGGGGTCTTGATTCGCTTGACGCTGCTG` has a fluorescence intensity of 91.4 a.u.
The fluorescence intensity of `CATACCCAACCTTTTCACGTGGCGTAAGATATTTGTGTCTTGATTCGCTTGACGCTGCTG` is reported as 740 a.u.
With `CATACCCAACCTTGTCACCCTACTTAAGATATTTGTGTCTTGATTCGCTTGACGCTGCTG` the fluorescence intensity was 64.9 a.u.
With `CATGTATCTTATTGTTTCGTGATGGTGTAGATCCGGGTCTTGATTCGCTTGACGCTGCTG` the fluorescence intensity was 95.2 a.u.
`AAAAGTATACTCGGAAACGTGATGGAATACCTTAGGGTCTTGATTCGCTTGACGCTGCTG` has a fluorescence intensity of 328 a.u.
With `GGAGGTAAGGACAAACTCGTGGAAGTGGCGATTAATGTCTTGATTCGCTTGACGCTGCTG` the fluorescence intensity was 74.1 a.u.
The fluorescence intensity of `CGGGCTGATAACTAGATGGTGTGTTCGGGCAGTATAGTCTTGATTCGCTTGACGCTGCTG` is reported as 54.3 a.u.
`AAAGCGGTAATTTGATGTGTGGGTGCAGATATCTATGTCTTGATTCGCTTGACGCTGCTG` gave a fluorescence intensity of 77 a.u.
For `ATATGGATTGATTTTCACATGTATCGTTTATGAGTAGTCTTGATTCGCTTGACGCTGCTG`, the fluorescence intensity was 178 a.u.
The fluorescence intensity of `AAAGCGGTAATTTGCTCGGTGGGTGCAGATATCTATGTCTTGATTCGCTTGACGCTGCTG` is reported as 81.2 a.u.
`TATGGTAACCTCTGCCATGCTGTCTCTGTTCCTTGAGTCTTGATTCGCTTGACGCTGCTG` has a fluorescence intensity of 71.4 a.u.

Set 4
Target: Protein C-ets-1 (ETS1, Homo sapiens, UniProt P14921, residues 1-441, K379A, full length assumed)
Technique: protein-binding microarray
Form: double-stranded DNA, one strand shown
Medium: in vitro
Concentration: not given
Setting: k-mer, scored over probes, only values ≥0.25
Direction: higher = stronger binding
Target sequence (chain): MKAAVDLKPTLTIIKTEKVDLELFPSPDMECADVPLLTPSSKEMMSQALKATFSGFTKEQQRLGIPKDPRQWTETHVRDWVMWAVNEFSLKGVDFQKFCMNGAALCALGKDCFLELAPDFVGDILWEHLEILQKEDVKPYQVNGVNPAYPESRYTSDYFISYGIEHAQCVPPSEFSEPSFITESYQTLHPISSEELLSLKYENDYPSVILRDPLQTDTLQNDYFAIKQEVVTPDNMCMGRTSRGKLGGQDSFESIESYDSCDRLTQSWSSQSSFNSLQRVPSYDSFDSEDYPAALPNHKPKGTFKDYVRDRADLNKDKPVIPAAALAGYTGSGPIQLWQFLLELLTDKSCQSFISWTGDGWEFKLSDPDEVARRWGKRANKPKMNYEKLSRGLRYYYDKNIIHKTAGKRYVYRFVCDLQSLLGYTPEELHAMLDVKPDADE
For `ACTTTCTA`, the E-score was 0.26.
`CTCCGGTC` has an E-score of 0.341.
The E-score of `CACAGTTA` is reported as 0.263.
`ACCCCGGC` has an E-score of 0.37.
`GCCGGTTA` gave an E-score of 0.32.
The E-score of `GGTCGGTA` is reported as 0.308.
For `AACATTGT`, the E-score was 0.357.
`CCGATACA` gave an E-score of 0.262.
`ACCGTTAA` gave an E-score of 0.261.
`GACCGGAA` has an E-score of 0.49.
The E-score of `CCGCCCCG` is reported as 0.428.
With `TCCGACAA` the E-score was 0.301.
For `CATATACG`, the E-score was 0.274.
With `GGTAATAA` the E-score was 0.267.
`CGCCAAAC` gave an E-score of 0.252.
`TGACGACA` has an E-score of 0.28.

Set 5
Target: Sal-like protein 4, full length isoform B (SALL4, Homo sapiens, UniProt Q9UJQ4-2, residues 1-616)
Technique: universal PBM
Form: double-stranded DNA, one strand shown
Medium: in vitro
Concentration: not given
Setting: 8-mer, flanks averaged, mean of replicates
Direction: higher = stronger binding
With `GGGGGTAA` the E-score was -0.136.
`TACCGACA` has an E-score of -0.0819.
`CAGGTCAA` has an E-score of -0.121.
For `GCCCGCGC`, the E-score was -0.363.
`AAACTCGA` has an E-score of -0.0515.
`CGGCCTAC` has an E-score of -0.148.
`GATAGTAC` gave an E-score of 0.0559.
With `ACTAAGAG` the E-score was -0.0612.
With `CATTCTTC` the E-score was 0.0953.
For `AGACTTCA`, the E-score was -0.0634.
`CACTTAAG` has an E-score of 0.124.
For `ACGGTAAG`, the E-score was -0.122.
`CCGCACGG` gave an E-score of -0.283.
The E-score of `ATTTACCA` is reported as 0.239.
`CAGAAGCG` has an E-score of -0.0648.
`AAACGTTG` has an E-score of -0.0691.
With `AAGCTGAC` the E-score was -0.00699.
With `CATCTAAA` the E-score was 0.0974.
`CCGCTAAG` has an E-score of -0.0259.
`GATCATGC` gave an E-score of -0.113.
With `ATCAAGCG` the E-score was -0.00053.
`GCCCATAC` gave an E-score of -0.0322.

Set 6
Target: Interferon regulatory factor 5, full length, phosphomimetic (IRF5, Homo sapiens, UniProt Q13568-2, residues 1-514, S451D/S453D/S456D/S462D)
Technique: protein-binding microarray
Form: double-stranded DNA, one strand shown
Medium: in vitro
Concentration: 940 nM top
Setting: 60-bp whole probe
Together with: salmon DNA 0.4 mg/ml
Baseline: random background probes
Direction: higher = stronger binding
Shared flanks, not repeated: GCCTAGCAC … GTCTTGATTCGCTTGACGCTGCTG
`TTAGGTTTCGGGTTTCGATTAGTGCTA`: “fitted relative affinity” 10.6 z-score.
`TTAGGTTCCGGTTGCGGTTAGTGCTAG`: “fitted relative affinity” 4.36 z-score.
For `GACGGACTGGGCTTTCGGGACGTGCTA`, “fitted relative affinity” read -0.407 z-score.
`GACGACATCAGTTTCGAGACGTGCTAG` — result for “fitted relative affinity”: 3.98 z-score.
Under “fitted relative affinity”, `GGTCTTTCCACTTTCTTTTGGTGCTAG` is recorded as 1.96 z-score.
`GACGGTATCCTTTTCCTGATGTGCTAG` — result for “fitted relative affinity”: 0.345 z-score.
`TTAGGTATCGGTCTCGGTTAGTGCTAG`: “fitted relative affinity” 10 z-score.
Under “fitted relative affinity”, `TTAGGTAGCCTTATCCTTTAGTGCTAG` is recorded as -0.435 z-score.
Under “fitted relative affinity”, `TTAGATTTCTGTATCGATTAGTGCTAG` is recorded as 2.71 z-score.
`TCAGGTATCGGTTTCGGTTAGTGCTAG` — result for “fitted relative affinity”: 12 z-score.
For `GACGGTTCCCTTTTCCTGAAGTGCTAG`, “fitted relative affinity” read 0.75 z-score.
For `GACGATTTCAGGTTCGAGACGTGCTAG`, “fitted relative affinity” read 0.224 z-score.
`TCAGCTTTCTTTACCACACTGTGCTAG`: “fitted relative affinity” 1.29 z-score.
`TACGATCTCAGTCTCGAGACGTGCTAG` — result for “fitted relative affinity”: 1.43 z-score.
For `GACGGTTTCGTGTATCGGGACGTGCTA`, “fitted relative affinity” read 5.53 z-score.
`GACAATCTCAGTATCGAGACGTGCTAG` — result for “fitted relative affinity”: 2.16 z-score.
Under “fitted relative affinity”, `TTAGATTTCAGTTCCGGTTAGTGCTAG` is recorded as 2.71 z-score.
Under “fitted relative affinity”, `TGAGGTATCGGTCTCGGTTAGTGCTAG` is recorded as 6.89 z-score.
For `TCACTTTACACACATCATACTGTGCTA`, “fitted relative affinity” read 1.45 z-score.
`GACGGGATCGACTATCGGGACGTGCTA`: “fitted relative affinity” -0.176 z-score.
`TCATATTTTTTTCCAGAACTGTGCTAG` — result for “fitted relative affinity”: 1.25 z-score.
`TTAGGTATCGGTATCGTTTAGTGCTAG`: “fitted relative affinity” 10.1 z-score.
For `TGAAGACTCTCTTGTCTGGATGTGCTA`, “fitted relative affinity” read 0.125 z-score.
For `TACGGACTGGACTTTCGGGACGTGCTA`, “fitted relative affinity” read 0.284 z-score.

Further values, each from its own experiment
The fold induction of `PhoQ, residues 284 288 289 292 302 303 TSTLRA` is reported as 8.6 (PhoP, residues 12 14 15 18 19 IQFRS (Escherichia coli, UniProt P23836); Sort-seq, measured: YFP reporter; E. coli; PhoQ-PhoP variant library, together with: 10 µM Mg2+; baseline: high Mg2+ state, higher = stronger signaling).

Excerpt of the above (set 1):
For `S27Y`, “relative binding score” read 13.1%.
`L138H` — result for “relative binding score”: -35.4%.
For `E125S`, “relative binding score” read 78.9%.
`E64S` — result for “relative binding score”: 73.5%.
`T6N`: “relative binding score” 72.7%.
`T101A` — result for “relative binding score”: 37.8%.
`H34F`: “relative binding score” 63.3%.
For `D92P`, “relative binding score” read -10.9%.
For `V145A`, “relative binding score” read 7.78%.
